Measured values gathered from unrelated publications.
Protocols differ between the studies behind these lines. ± gives the spread as reported.
UniProt P78527, sequence (whole entry, looked up): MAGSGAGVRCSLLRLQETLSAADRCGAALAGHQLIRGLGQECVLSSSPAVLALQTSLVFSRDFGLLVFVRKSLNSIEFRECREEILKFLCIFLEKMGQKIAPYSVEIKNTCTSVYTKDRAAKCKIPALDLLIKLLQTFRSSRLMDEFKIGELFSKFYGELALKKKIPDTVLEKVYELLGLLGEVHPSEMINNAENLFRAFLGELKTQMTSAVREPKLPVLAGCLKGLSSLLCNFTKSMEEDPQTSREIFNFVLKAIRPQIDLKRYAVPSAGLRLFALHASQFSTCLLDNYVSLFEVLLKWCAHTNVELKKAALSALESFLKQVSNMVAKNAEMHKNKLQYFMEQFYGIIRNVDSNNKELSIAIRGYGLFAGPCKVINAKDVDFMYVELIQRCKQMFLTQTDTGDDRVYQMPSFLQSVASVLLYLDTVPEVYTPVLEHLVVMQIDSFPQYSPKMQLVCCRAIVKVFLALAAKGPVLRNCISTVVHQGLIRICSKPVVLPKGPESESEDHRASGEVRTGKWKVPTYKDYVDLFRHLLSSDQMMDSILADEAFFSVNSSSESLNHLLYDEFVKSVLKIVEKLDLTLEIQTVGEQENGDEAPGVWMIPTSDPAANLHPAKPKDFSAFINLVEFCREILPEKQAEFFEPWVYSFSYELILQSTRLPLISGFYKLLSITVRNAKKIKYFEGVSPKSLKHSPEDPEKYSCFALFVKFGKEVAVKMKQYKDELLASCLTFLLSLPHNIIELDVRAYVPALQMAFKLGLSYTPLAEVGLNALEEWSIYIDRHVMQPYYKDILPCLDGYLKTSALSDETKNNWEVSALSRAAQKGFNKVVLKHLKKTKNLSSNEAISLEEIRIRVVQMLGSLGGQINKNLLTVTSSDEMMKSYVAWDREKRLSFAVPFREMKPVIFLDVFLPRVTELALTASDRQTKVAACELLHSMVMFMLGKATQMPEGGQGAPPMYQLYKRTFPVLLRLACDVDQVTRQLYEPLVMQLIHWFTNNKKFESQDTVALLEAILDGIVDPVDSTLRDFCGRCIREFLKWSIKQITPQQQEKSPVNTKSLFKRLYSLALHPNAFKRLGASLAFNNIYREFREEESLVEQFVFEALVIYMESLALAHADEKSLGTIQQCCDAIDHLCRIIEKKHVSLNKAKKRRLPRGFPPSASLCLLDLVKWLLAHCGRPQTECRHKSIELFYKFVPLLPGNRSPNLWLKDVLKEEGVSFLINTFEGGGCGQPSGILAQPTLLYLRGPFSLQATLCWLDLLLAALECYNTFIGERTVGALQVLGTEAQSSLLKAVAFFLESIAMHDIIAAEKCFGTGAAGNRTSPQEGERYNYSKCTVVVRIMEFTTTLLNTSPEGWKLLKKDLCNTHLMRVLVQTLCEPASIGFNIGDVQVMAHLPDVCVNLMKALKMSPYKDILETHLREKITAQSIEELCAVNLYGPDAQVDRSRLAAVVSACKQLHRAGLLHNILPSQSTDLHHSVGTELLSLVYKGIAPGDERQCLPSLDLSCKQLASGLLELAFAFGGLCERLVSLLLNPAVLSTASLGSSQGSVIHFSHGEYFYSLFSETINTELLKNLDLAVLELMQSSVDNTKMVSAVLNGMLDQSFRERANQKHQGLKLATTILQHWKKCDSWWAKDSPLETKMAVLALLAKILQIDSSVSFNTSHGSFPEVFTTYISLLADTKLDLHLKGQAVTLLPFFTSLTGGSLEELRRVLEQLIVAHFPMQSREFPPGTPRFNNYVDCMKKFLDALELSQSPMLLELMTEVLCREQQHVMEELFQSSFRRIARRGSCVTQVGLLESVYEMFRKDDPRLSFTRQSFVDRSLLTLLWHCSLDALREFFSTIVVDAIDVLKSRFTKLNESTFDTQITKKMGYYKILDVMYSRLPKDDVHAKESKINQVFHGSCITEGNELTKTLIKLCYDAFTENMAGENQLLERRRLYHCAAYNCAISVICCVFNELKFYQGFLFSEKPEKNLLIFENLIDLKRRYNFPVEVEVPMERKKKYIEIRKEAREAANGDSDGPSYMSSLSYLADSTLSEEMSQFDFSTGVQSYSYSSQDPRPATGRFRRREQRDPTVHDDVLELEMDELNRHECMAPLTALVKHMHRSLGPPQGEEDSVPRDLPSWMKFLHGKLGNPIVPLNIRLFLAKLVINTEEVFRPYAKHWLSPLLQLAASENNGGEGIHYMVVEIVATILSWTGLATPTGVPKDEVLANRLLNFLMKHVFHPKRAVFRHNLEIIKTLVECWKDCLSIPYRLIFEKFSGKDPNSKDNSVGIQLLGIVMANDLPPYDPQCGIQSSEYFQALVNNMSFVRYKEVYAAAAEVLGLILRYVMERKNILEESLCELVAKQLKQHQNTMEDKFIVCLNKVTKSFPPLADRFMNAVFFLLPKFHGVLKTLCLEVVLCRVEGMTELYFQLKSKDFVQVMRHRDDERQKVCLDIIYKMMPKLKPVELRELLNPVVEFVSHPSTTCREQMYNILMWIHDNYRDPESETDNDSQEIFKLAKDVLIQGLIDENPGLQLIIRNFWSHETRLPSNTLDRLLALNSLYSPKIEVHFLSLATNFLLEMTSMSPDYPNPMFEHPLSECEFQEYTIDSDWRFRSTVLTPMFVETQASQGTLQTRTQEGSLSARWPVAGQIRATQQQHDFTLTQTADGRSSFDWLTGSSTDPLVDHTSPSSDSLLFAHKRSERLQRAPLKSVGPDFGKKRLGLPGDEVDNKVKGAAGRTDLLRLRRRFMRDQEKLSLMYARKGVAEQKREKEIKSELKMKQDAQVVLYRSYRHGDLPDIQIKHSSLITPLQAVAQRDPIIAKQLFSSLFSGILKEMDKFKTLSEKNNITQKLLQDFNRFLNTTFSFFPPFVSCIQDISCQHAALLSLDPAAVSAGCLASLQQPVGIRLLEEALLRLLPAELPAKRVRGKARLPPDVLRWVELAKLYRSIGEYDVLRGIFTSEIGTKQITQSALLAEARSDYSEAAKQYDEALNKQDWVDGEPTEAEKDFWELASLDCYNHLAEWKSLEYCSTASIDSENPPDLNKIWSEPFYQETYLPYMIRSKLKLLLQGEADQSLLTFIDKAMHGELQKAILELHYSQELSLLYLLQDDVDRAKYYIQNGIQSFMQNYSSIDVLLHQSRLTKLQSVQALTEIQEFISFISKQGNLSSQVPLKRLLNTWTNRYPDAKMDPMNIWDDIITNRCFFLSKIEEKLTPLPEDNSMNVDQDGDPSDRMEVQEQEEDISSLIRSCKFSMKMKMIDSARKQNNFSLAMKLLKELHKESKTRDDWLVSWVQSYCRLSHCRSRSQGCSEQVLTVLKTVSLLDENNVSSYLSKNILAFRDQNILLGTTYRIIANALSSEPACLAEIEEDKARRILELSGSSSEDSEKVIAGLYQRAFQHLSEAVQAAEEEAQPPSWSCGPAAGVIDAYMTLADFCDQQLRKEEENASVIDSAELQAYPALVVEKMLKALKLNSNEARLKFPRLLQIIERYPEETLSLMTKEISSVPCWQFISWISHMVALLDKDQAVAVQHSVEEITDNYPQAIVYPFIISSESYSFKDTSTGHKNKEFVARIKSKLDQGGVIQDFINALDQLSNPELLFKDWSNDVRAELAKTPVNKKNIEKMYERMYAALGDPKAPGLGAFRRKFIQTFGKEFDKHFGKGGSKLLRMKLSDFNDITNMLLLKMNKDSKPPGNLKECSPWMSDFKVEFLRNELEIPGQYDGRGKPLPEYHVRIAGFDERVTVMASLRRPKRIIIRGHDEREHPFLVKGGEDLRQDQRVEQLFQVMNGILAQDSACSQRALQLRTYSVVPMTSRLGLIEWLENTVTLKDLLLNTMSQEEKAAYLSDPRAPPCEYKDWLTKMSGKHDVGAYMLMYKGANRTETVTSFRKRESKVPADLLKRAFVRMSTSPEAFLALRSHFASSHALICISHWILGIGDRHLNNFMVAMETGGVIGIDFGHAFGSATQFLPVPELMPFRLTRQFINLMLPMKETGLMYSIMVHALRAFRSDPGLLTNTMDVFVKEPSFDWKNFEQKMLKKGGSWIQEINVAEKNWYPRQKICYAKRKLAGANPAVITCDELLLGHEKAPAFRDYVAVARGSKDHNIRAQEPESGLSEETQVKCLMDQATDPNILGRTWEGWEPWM
UniProt Q08881, sequence (whole entry, looked up): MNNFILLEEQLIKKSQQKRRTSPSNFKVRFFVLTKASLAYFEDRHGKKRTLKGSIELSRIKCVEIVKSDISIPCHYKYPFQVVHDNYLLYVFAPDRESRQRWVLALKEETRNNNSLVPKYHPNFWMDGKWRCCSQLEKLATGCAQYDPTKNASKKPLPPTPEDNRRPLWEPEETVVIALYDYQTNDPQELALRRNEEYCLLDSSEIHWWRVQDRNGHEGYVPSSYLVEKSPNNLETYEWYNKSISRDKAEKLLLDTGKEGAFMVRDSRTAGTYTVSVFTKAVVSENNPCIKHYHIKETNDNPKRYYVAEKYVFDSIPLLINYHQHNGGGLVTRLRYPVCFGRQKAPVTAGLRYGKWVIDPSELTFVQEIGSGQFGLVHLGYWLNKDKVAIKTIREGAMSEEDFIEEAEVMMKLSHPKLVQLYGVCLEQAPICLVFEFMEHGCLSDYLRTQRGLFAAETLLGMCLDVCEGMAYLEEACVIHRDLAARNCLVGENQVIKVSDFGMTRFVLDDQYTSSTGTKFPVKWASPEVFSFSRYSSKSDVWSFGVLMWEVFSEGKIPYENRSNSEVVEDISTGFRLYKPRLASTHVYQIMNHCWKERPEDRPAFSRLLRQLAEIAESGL
UniProt Q99895, sequence (whole entry, looked up): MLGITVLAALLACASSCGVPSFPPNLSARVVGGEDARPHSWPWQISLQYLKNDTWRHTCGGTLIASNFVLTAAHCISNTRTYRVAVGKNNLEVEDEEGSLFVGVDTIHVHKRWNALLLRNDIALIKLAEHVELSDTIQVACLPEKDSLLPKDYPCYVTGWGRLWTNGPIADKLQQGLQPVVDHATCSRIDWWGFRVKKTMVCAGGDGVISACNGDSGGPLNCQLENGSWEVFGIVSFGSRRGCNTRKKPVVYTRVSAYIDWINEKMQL

Structure (SMILES)	target or system	test	system	setting	how to read	endpoint	result
O=C1NC2(CC2)COc2ncc(F)cc2[C@H]2COCCN2c2ccn3ncc1c3n2	–	–	Sprague-Dawley rat, male, serum	oral, 10 mg/kg/day, end of treatment, 4-week subacute toxicity	–	serum LDH activity	845 ± 401 U/L
CN[C@H](CC(C)C)C(=O)N[C@H]1C(=O)N[C@@H](CC(N)=O)C(=O)N[C@H]2C(=O)N[C@H]3C(=O)N[C@H](C(=O)N[C@H](C(=O)NCC(N)=O)c4cc(O)cc(O)c4-c4cc3ccc4O)[C@H](O)c3ccc(c(Cl)c3)Oc3cc2cc(c3O[C@@H]2O[C@H](CO)[C@@H](O)[C@H](O)[C@H]2O[C@H]2C[C@](C)(NCc3ccc(OCc4cn(CC(=O)N[C@H](C(=O)N[C@@H](CCN)C(=O)N[C@H]5CCNC(=O)[C@H]([C@@H](C)O)NC(=O)[C@H](CCN)NC(=O)[C@H](CCN)NC(=O)[C@H](CC(C)C)NC(=O)[C@@H](CC(C)C)NC(=O)[C@H](CCN)NC5=O)[C@@H](C)O)nn4)c(OC)c3)[C@H](O)[C@H](C)O2)Oc2ccc(cc2Cl)[C@H]1O	ciPTEC overexpressing OAT-1	–	–	24 h, 37 °C, serum-free medium	–	TC50	180 µM
CC[C@H](C)[C@H](NC(=O)[C@H](CO)NC(=O)[C@H](Cc1ccc(O)cc1)NC(=O)[C@H](Cc1ccc(O)cc1)NC(=O)[C@H](CC(N)=O)NC(=O)CNC(=O)[C@H](CO)NC(=O)[C@H](Cc1ccc(O)cc1)NC(=O)[C@H](CO)NC(=O)[C@H](CO)NC(=O)[C@H](CC(N)=O)NC(=O)COCCOCCNC(=O)CN1CCN(CC(=O)O)CCN(CC(=O)O)CCN(CC(=O)O)CC1)C(=O)N[C@@H](CC(C)C)C(N)=O [copper-64 labelled]	–	dynamic PET	KPC mouse Ptf1a-CreER tdTomato, metastases	intravenous, 4.6 MBq/mouse, 12.5 min, 84 d after tamoxifen	–	tissue uptake	14.1 %ID/mL
COc1ccccc1-c1n[nH]c2nc(NC3CCN(C(=O)Cc4ccc(F)cc4F)CC3)ncc12	–	bead binding, competition bead pull-down, measured: LINJ.35.4500	Leishmania donovani extract	10 µM	baseline: vehicle	relative abundance	1.31
CC(=O)N[C@@H](CC(C)C)C(=O)N[C@H](C(=O)N[C@@H](Cc1ccccc1)C(=O)N[C@]1(C)CCCCCC/C=C/CCC[C@@](C)(C(=O)N[C@@H](C)C(=O)N[C@@H](C)C(=O)N[C@@H](C)C(=O)N[C@@H](C)C(=O)N[C@@H](C)C(=O)N[C@H](C)C(N)=O)NC(=O)[C@H](CC(C)C)NC(=O)[C@H](CCCCNC(=O)CCNC(=O)C[C@@H]2N=C(c3ccc(Cl)cc3)c3c(sc(C)c3C)-n3c(C)nnc32)NC(=O)[C@H](C)NC(=O)[C@H](Cc2c[nH]c3ccccc23)NC(=O)[C@H](Cc2ccc(O)cc2)NC(=O)[C@H](C)NC1=O)[C@@H](C)O	–	–	C57BL/6 mouse, blood	intravenous, 3 mg/kg twice weekly, 2 weeks	–	lymphocytes	75.3%
CC(C)C[C@@H]1NC(=O)CNC(=O)[C@@H]2CSSC[C@@H]3NC(=O)[C@H]([C@@H](C)O)NC(=O)[C@H](CC(N)=O)NC(=O)[C@H](CSSC[C@@H](C(=O)N[C@@H](Cc4ccc(O)cc4)C(=O)N[C@@H](CCC(N)=O)C(=O)O)NC(=O)[C@H](CC(C)C)NC(=O)[C@H](C)NC1=O)NC(=O)[C@H](CCCCN)NC(=O)[C@H](CC(=O)O)NC(=O)[C@H](CCCCN)NC(=O)[C@H](Cc1ccccc1)NC(=O)[C@H]([C@@H](C)O)NC(=O)[C@H]([C@@H](C)O)NC(=O)CNC(=O)[C@@H]1CCCN1C(=O)[C@H](CCC(=O)O)NC(=O)[C@@H](NC(=O)[C@@H](NC(=O)[C@@H](NC(=O)[C@H](CCC(=O)O)NC(=O)[C@H](CO)NC(=O)CN)C(C)C)[C@@H](C)O)CSSC[C@H](NC(=O)[C@H](CCCNC(=N)N)NC3=O)C(=O)NCC(=O)N[C@@H](CO)C(=O)N[C@@H](CC(=O)O)C(=O)NCC(=O)N[C@@H](CCCCN)C(=O)N[C@@H](CO)C(=O)N[C@@H](C)C(=O)N[C@@H](Cc1ccc(O)cc1)C(=O)N2	Chymotrypsin-C (Homo sapiens, UniProt Q99895)	substrate, LC-MS	–	15 µM, pH 8.0, 25 °C	–	time to full digestion	≤ 2 days
CSCC[C@@H]1NC(=O)[C@@H]2CCCN2C(=O)[C@H](C(C)C)NC(=O)[C@@H](NC(=S)Nc2ccc(CC3CN(CC(=O)O)CCN(CC(=O)O)CCN3CC(=O)O)cc2)CSSC[C@@H](C(=O)O)NC(=O)[C@H](C)NC(=O)[C@H](CCCNC(=N)N)NC(=O)[C@H](Cc2ccc(O)cc2)NC(=O)[C@H]([C@@H](C)O)NC1=O (stereo partly shown) [gallium-68 labelled]	–	PET	mouse B16-F10 tumour	intravenous, 1 h	–	tumour to muscle ratio	8.22 ± 1.6
CC[C@H](C)[C@@H]([C@@H](CC(=O)N1CCC[C@H]1[C@H](OC)[C@@H](C)C(=O)N[C@H](C)[C@@H](O)c1ccccc1)OC)N(C)C(=O)[C@@H](NC(=O)[C@H](C(C)C)N(C)C(=O)OCc1ccc(NC(=O)[C@H](CCCNC(N)=O)NC(=O)[C@@H](NC(=O)CCCCCN2C(=O)CC(SC[C@H](NC(=O)[C@H](CC(=O)O)NC(=O)[C@H](Cc3ccc(O)cc3)NC(=O)[C@H](Cc3c[nH]c4ccccc34)NC(=O)[C@@H](N)CCCNC(=N)N)C(=O)O)C2=O)C(C)C)cc1)C(C)C (stereo partly shown)	–	–	C57BL/6 mouse, healthy, liver	intraperitoneal, 2.5 mg/kg, 6 h	–	concentration	not detected
CCCC[C@H](NC(=O)CN1CCC(NC(=O)CN2CCN(CC(N)=O)CCN(CC(N)=O)CCN(CC(N)=O)CC2)CC1)C(=O)N[C@H]1CC(=O)NCCCC[C@@H](C(N)=O)NC(=O)[C@H](Cc2c[nH]c3ccccc23)NC(=O)[C@H](CCCNC(=N)N)NC(=O)[C@@H](Cc2ccccc2)NC(=O)[C@H](Cc2c[nH]cn2)NC1=O [lead-203 labelled]	–	SPECT/CT	male C57BL/6J mice, B16-F10 tumour, liver	intravenous, 20 pmol, 2 h, 203Pb-labelled	–	SUVmean	2.02 SUV
CC(C)C[C@H](NC(=O)[C@@H](N)Cc1ccccc1)C(=O)N[C@@H](C)C(=O)N[C@H]1CSCc2cccc(n2)CSC[C@@H](C(=O)N[C@H](C(=O)NCC(=O)N[C@@H](CO)C(=O)N[C@@H](Cc2c[nH]c3ccccc23)C(=O)N[C@@H](CCCCNC(=O)CN2CCN(CC(=O)O)CCN(CC(=O)O)CCN(CC(=O)O)CC2)C(N)=O)[C@@H](C)O)NC(=O)[C@H](Cc2c[nH]cn2)NC(=O)[C@H]([C@@H](C)O)NC(=O)[C@H](CCC(=O)O)NC(=O)[C@@H]2CCCN2C1=O [gallium-68 labelled]	–	PET/CT imaging	BALB/c mouse, male, A-375 tumour, tumour	iv, 3.7 MBq, 1 h	–	tumour uptake	2.1 %ID/g
CC(C)[C@H]1NC(=O)C[C@H]2/C=C/CCSSC[C@@H](NC1=O)C(=O)N[C@H](Cc1cccc3ccccc13)C(=O)NCC(=O)O2	ITK (Homo sapiens, UniProt Q08881)	enzyme activity, inhibitor	–	10 µM	–	inhibition	7.5%
N=C(N)NCCC[C@@H]1NC(=O)[C@H](CCCCNC(=O)CCC(NC(=S)Nc2ccc(CC3CN(CC(=O)O)CCN(CC(=O)O)CCN(CC(=O)O)CCN3CC(=O)O)cc2)C(=O)NCCCC[C@@H]2NC(=O)[C@@H](Cc3ccc(O)cc3)NC(=O)[C@H](CC(=O)O)NC(=O)CNC(=O)[C@H](CCCNC(=N)N)NC2=O)NC(=O)[C@@H](Cc2ccc(O)cc2)NC(=O)[C@H](CC(=O)O)NC(=O)CNC1=O (stereo partly shown) [scandium-44 labelled]	–	ex vivo γ-counting	female athymic nude mice, U-87 MG xenograft, stomach	intravenous, 4 h	–	tissue uptake	0.71 ± 0.3 %ID/g
CS(C)(=O)=Nc1ccc(-c2ccc(-c3nc4cc(O[C@@H]5CO[C@H]6[C@@H]5OC[C@H]6O)[nH]c4cc3F)cc2)cc1	PRKDC (Homo sapiens, UniProt P78527)	enzyme activity, inhibitor	–	10 µM	–	inhibition	7%

For quick reference, copied from above:
Structure (SMILES)	target or system	test	system	setting	how to read	endpoint	result
CCCC[C@H](NC(=O)CN1CCC(NC(=O)CN2CCN(CC(N)=O)CCN(CC(N)=O)CCN(CC(N)=O)CC2)CC1)C(=O)N[C@H]1CC(=O)NCCCC[C@@H](C(N)=O)NC(=O)[C@H](Cc2c[nH]c3ccccc23)NC(=O)[C@H](CCCNC(=N)N)NC(=O)[C@@H](Cc2ccccc2)NC(=O)[C@H](Cc2c[nH]cn2)NC1=O [lead-203 labelled]	–	SPECT/CT	male C57BL/6J mice, B16-F10 tumour, liver	intravenous, 20 pmol, 2 h, 203Pb-labelled	–	SUVmean	2.02 SUV
